# Published values gathered from unrelated publications.
# Lines come from different studies, so protocols differ. “And” joins repeats or separate records; there may be more than shown. ± gives the spread as reported.
# Organism: SARS-CoV-2
Compound,test,system,conditions,how to read,measurement,value
CCn1ccc(-c2cc(-c3cnn(C)c3)cc([C@@H](C)NC(=O)c3cc(OCCN(C)C)ccc3C)c2)n1,viral replication,recombinant Y268H mutant,,relative to: wild type,EC50 fold change,6 to 13 fold
CC[C@H](C)[C@@H]1NC(=O)[C@H](Cc2c[nH]c3ccccc23)NC(=O)[C@H](C)NC(=O)[C@H](CC(N)=O)NC(=O)[C@H](Cc2ccc(O)cc2)NC(=O)CNC(=O)[C@H](Cc2ccc(O)cc2)NC(=O)[C@H](C(C)C)NC(=O)[C@H](C(C)C)NC(=O)CNC(=O)[C@H](C)NC(=O)[C@H](CCCCN)NC(=O)[C@@H](Cc2ccc(O)cc2)NC(=O)CSC[C@@H](C(N)=O)NC(=O)[C@H](CCCNC(=N)N)NC1=O,viral replication,Vero E6,,,antiviral activity,> 10 µM
O=C1C(O)=C(Nc2cccc(C(F)(F)F)c2)C(=O)c2ccccc21,,Calu-3 and HepG2,,relative to: HepG2 CC50 over antiviral EC50,selectivity index,120 ± 30
Cc1oc2nc1C(=O)N[C@](C)(C(=O)O)c1nc(c(C)o1)C(=O)N[C@](C)(C(=O)O)c1nc(c(C)o1)C(=O)N[C@]2(C)C(=O)O,viral adsorption,"Vero E6, NRC-03-nhCoV",20 µM,,inhibition,66%
COc1ccc(-c2cnc3[nH]cc(C#Cc4cccnc4)c3c2)cc1OC,,Calu-3,"5 µM, 10 h",relative to: DMSO,infection reduction,93 ± 4.1%
Cc1oc2nc1C(=O)N[C@](C)(C(=O)NCCc1ccccc1)c1nc(c(C)o1)C(=O)N[C@](C)(C(=O)NCCc1ccccc1)c1nc(c(C)o1)C(=O)N[C@]2(C)C(=O)NCCc1ccccc1,viral replication,"Vero E6, NRC-03-nhCoV",10 µM,,inhibition,19%
O=C(CCCCCCCCCCc1ccc(O)c(O)c1)c1c(O)cccc1O,,"Vero E6/TMPRSS2, WK-521 ancestral",,relative to: CC50 over EC50,selectivity index,2.3
Oc1cc(O)c2c(c1)OC(c1ccc(O)c(O)c1)C(OC1(c3ccc(O)c(O)c3)Oc3cc(O)cc(O)c3C(O)C1O)C2 (stereo not drawn),,Vero C1008,,relative to: CC50 over EC50,selectivity index,> 40
O=C1C=CC(=O)C=C1,,Huh-7,,relative to: CC50 over EC50,selectivity index,inactive
CC(C)CC(C(=O)N1CC2(CC1C#N)C(=O)Nc1ccccc12)N(C)C(=O)c1cc2c(F)cc(F)c(F)c2[nH]1 (stereo not drawn),viral replication,Vero E6,0.3333 µM,,inhibition,108% and 110% and 94.6%
CCC1OC(C2(C)CC(C)C(O)(C3(C)CCC(C(O)C4(O)OC(CC5(O)OC(C(C)C(O)CC6CCC(C)C(C(C)C(=O)O)O6)CCC5C)C(C)CC4C)O3)O2)CCC1(C)O (stereo not drawn),qRT-PCR viral RNA,Vero E6-hTMPRSS2,concentration not given,,viral replication,inhibited
CCCCCOP(=O)(O)Oc1c2c(c(OP(=O)(O)OCCCCC)c3c1C1CC3c3cc4c(cc31)C1CC4c3ccccc31)C1CC2c2cc3c(cc21)C1CC3c2ccccc21,spike pseudoparticle entry,Caco-2,,,IC50,6.4 µM
C[C@@H]1O[C@@H](n2c3ccccc3c3c4c(c5c6ccccc6[nH]c5c32)CNC4=O)C[C@@H](N)[C@H]1O,"viral replication, dsRNA staining","Calu-3, Delta B.1.617.2",,,EC50,1 µM
Cc1ccc(N2CC(N3CCC(C)(O)CC3)C2)cc1C(=O)NC1(c2ccc3c4c(cccc24)CC3)CC1,viral replication,"Vero C1008, Omicron BA.5",0.05144 µM,,inhibition,0%
CC(C)C(=O)OC[C@H]1O[C@@](C#N)(n2ccc(N)nc2=O)[C@H](O)[C@@H]1O,"viral replication, qRT-PCR of viral RNA","Calu-3, Washington",,,EC90,8.3 ± 1.7 µM
Cc1ccc(N2CCN(C)CC2)cc1C(=O)NC1(c2ccc3c4c(cccc24)CC3)CC1,viral replication,"Vero C1008, Omicron BA.5",0.05144 µM,,inhibition,0%
C#CCC(C)OP(=O)(O)Oc1c2c(c(OP(=O)(O)OC(C)CC#C)c3c1C1CC3c3cc4c(cc31)C1CC4c3ccccc31)C1CC2c2cc3c(cc21)C1CC3c2ccccc21 (stereo not drawn),spike pseudoparticle entry,Caco-2,,,IC50,15.2 µM
CC(C)(C)NC(=O)[C@@H](c1cccnc1)N(C(=O)c1ccco1)c1ccc(C(C)(C)C)cc1,viral replication,Vero,10 µM,,viral reduction,4.42%
Oc1ccc(Br)cc1-c1nc2cc(C(F)(F)F)ccc2s1,,SB2,10 µM,,viral RNA release reduction,90%
COc1cccc2[nH]c(C(=O)N[C@@H](CC(C)C)C(=O)N[C@@H](C[C@@H]3CCNC3=O)C(=O)c3nc4ccccc4s3)cc12,"viral RNA, RT-qPCR","VeroE6, WK-521 (ancestral Wuhan)",,,EC99,8.4 ± 0.23 µM
Cc1ccc(N2CC(N3CCC(C)(O)CC3)C2)cc1C(=O)NC1(c2ccc3c4c(cccc24)C(=O)N3C)CC1,viral replication,"Vero C1008, Omicron BA.5",0.01715 µM,,inhibition,0%
CCCOP(=O)(O)Oc1c2c(c(OP(=O)(O)OCCC)c3c1C1CC3c3cc4c(cc31)C1CC4c3ccccc31)C1CC2c2cc3c(cc21)C1CC3c2ccccc21,spike pseudoparticle entry,Caco-2,,,IC50,15.6 µM
CCCC/C=C/C(=O)N[C@@H](Cc1csc2ccccc12)C(=O)N[C@H]1COC(=O)[C@@H]2C[C@@H](C)CN2C(=O)[C@H](C)NC(=O)[C@@H]2CCCCN2C(=O)[C@@H]2CCCN2C1=O,,Huh-7 CLPP knock-out 2,"concentration not given, 6 h, unit not given",relative to: DMSO,RNA release,0.74 and 0.781 and 0.761
Cc1ccc(N2CC3CC(C2)N3)cc1C(=O)NC1(c2ccc3c4c(cccc24)C(=O)N3C)CC1,viral replication,"Vero C1008, Omicron BA.5",0.1543 µM,,inhibition,25% and 10%
O=c1nc(NO)ccn1[C@@H]1O[C@H](CO)[C@@H](O)[C@H]1O,viral replication,Vero,"concentration not given, 48 h, single nontoxic dose",,virus yield reduction,> 90%
Oc1ccc(CCCCCCCCC(O)c2c(O)cccc2O)cc1O (stereo not drawn),,"Vero E6/TMPRSS2, WK-521 ancestral",,relative to: CC50 over EC50,selectivity index,> 7.4
Cc1oc2nc1C(=O)N[C@](C)(C(=O)OC(C)C)c1nc(c(C)o1)C(=O)N[C@](C)(C(=O)OC(C)C)c1nc(c(C)o1)C(=O)N[C@]2(C)C(=O)OC(C)C,viral adsorption,"Vero E6, NRC-03-nhCoV",10 µM,,inhibition,12%

# A few entries again:
Compound,test,system,conditions,how to read,measurement,value
C#CCC(C)OP(=O)(O)Oc1c2c(c(OP(=O)(O)OC(C)CC#C)c3c1C1CC3c3cc4c(cc31)C1CC4c3ccccc31)C1CC2c2cc3c(cc21)C1CC3c2ccccc21 (stereo not drawn),spike pseudoparticle entry,Caco-2,,,IC50,15.2 µM
CC(C)(C)NC(=O)[C@@H](c1cccnc1)N(C(=O)c1ccco1)c1ccc(C(C)(C)C)cc1,viral replication,Vero,10 µM,,viral reduction,4.42%
Oc1ccc(Br)cc1-c1nc2cc(C(F)(F)F)ccc2s1,,SB2,10 µM,,viral RNA release reduction,90%
COc1cccc2[nH]c(C(=O)N[C@@H](CC(C)C)C(=O)N[C@@H](C[C@@H]3CCNC3=O)C(=O)c3nc4ccccc4s3)cc12,"viral RNA, RT-qPCR","VeroE6, WK-521 (ancestral Wuhan)",,,EC99,8.4 ± 0.23 µM
